Results of several laboratories.
Parts stem from different laboratories: compare values within a part only.

Set 1
Target: Interferon regulatory factor 5, full length, phosphomimetic (IRF5, Homo sapiens, UniProt Q13568-2, residues 1-514, K96S/S451D/S453D/S456D/S462D)
Technique: protein-binding microarray
Form: double-stranded DNA, one strand shown
Matrix: in vitro
Concentration: 250 nM
Notes: 60-bp whole probe
Added: salmon DNA 0.4 mg/ml
Relative to: random background probes
Reading: higher = stronger binding
Constant ends, left off below: GCCTAGCAC … GTCTTGATTCGCTTGACGCTGCTG
Sequence	log fluorescence
GAGGGTTTCGACTATCGGGACGTGCTA	5.75 z-score
GACAATCTCAGTCTCGAGACGTGCTAG	0.398 z-score
GACGGACTGCTACTGCTGTCGTGCTAG	-0.452 z-score
TCAGATATCGGGTTTCGATTAGTGCTA	7.51 z-score
GACTATTTCGGGTATCGAGACGTGCTA	4.81 z-score
TCAACTTCTGTTTTTGCACTGTGCTAG	0.991 z-score
TCATAACTCATTTTCATACTGTGCTAG	1.6 z-score
TCACATTTTTTTTGCAAACTGTGCTAG	0.972 z-score
GACGGTTTCCTATTCCTGACGTGCTAG	0.826 z-score
TTAGATTTCGGGACTGGAATAGTGCTA	3.07 z-score
GACGGACTCCTTATCCTGACGTGCTAG	-0.67 z-score
TTAGCACTGAGACTGGATTAGTGCTAG	-0.0688 z-score
TAAGGTTTCGGACTGGGTTAGTGCTAG	3.5 z-score
TCAGGTGTCTTTTGTGGAACTGTGCTA	0.112 z-score
GACGGACTGCTCCTGCTGACGTGCTAG	-0.512 z-score
GACGGTTTCCCTCTCCTGACGTGCTAG	0.708 z-score

Set 2
Target: Histone acetyltransferase KAT6A, winged helix 2, GST fusion (KAT6A, Homo sapiens, UniProt Q92794, residues 85-181)
Technique: protein binding microarray
Form: double-stranded DNA, one strand shown
Matrix: in vitro
Concentration: not given
Notes: 8-mer, flanks averaged, mean of 2 arrays, mostly near background
Relative to: not given
Reading: higher = stronger binding
Residues (chain): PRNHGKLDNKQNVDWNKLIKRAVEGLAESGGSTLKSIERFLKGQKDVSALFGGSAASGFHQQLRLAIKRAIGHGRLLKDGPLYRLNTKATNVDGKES
Sequence	E-score
GAGTTCCA	-0.067
CGGTTCCA	-0.0681
GCCCAAGC	0.185
CACTAATG	-0.102
CACGTACC	-0.00443
ACATACGA	-0.055
GACGAGTC	-0.0497
GTGAGATA	-0.0288
CAGGCGTA	0.105
CTTGAACC	0.0423
CCGCTTTA	0.121
CACATCGA	-0.0648
ACCGTCGT	-0.136
CATAGATA	-0.204
AACCGTTG	-0.0977
CGTGAGAG	-0.0593
CATAGGGG	-0.17
GATGTTTA	-0.0803
AGGGTCTG	-0.206
ATTTTAAC	-0.154
AGAGCTAC	-0.065
ATATGGCA	-0.126
CGAGTGGC	0.0419
CAGGAAAA	0.145
CCCACCGC	0.163

Set 3
Target: Fragile X messenger ribonucleoprotein 1, C-terminal low-complexity region (Fmr1, Mus musculus, UniProt P35922)
Technique: RNA Bind-n-Seq
Form: RNA
Matrix: in vitro
Concentration: 200 nM
Notes: whole 134-nt RNA, ends assumed
Added: 150 mM KCl
Relative to: input library
Reading: higher = stronger binding
Sequence	log2 enrichment
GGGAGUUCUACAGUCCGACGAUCCACAGACAACACGCACCCACACAGACACAGAGGGAAGGGGUUGGGAUGCGGACAGGGUGCACAGCAGGGCGGGGUAGGACCCCAGCCCCUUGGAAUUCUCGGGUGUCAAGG	0.895
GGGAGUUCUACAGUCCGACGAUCAAGUCCUGUGCUACACAUCGUAUGUACCGAAUCGGCCCCGGGCCCCGGCCCCGGGGAAAGUAUUAUGUUACGCCGUUCGGAUCUGCACUUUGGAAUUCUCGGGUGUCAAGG	-0.713
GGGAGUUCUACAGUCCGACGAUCGUCCUGUGCUACACAUCGUAUGUACCGAAUCAAACCCAAAUUUUUAAAUUUUUUUAAAAAAGUAUUAUGUUACGCCGUUCGGAUCUGCACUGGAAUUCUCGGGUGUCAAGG	-0.0399
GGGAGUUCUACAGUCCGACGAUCUCAAGUCCUGUGCUACACAUCGUAUGUACCGAAUCGGGUUGGGGUUGGGUUGGGGAAAGUAUUAUGUUACGCCGUUCGGAUCUGCACUUCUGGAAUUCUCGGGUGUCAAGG	1.25
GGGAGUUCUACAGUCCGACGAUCUGUGCUACACAUCGUAUGUACCGAAUCGGGGCCCCCCCGGGGCCCCCCCGGCCCCCCCGGGGAAAGUAUUAUGUUACGCCGUUCGGAUCUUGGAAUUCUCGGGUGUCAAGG	-1.59
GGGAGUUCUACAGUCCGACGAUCCCUGUGCUACACAUCGUAUGUACCGAAUCGGGGUUUUUUGGGGUUUUUUGGGUUUUUUGGAAAGUAUUAUGUUACGCCGUUCGGAUCUGCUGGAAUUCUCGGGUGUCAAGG	-0.0541
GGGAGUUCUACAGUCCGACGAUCGUCCUGUGCUACACAUCGUAUGUACCGAAUCGGUUUUUUUGGUUUUUUUGGUUUUUGGAAAGUAUUAUGUUACGCCGUUCGGAUCUGCACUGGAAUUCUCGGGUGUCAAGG	-0.701
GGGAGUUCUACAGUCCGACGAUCGCAGGAAGUAAAAACAAAUGGAAAUGCUUCGGAUAGUGGCAGGGGUGGGGGUUGCUAAGGAAAGGGUGCGAUGGGAGUGGGUAAAGAGUUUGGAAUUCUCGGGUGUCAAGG	0.257
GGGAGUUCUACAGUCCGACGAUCCCUGUGCUACACAUCGUAUGUACCGAAUCGGGAAAAAAAGGAAAAAAAGGGAAAAAAAGGGAAAGUAUUAUGUUACGCCGUUCGGAUCUGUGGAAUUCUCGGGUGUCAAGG	-1.01

Set 4
Target: RNA binding protein fox-1 homolog 2, RRM domain, GST-SBP tag (RBFOX2, Homo sapiens, UniProt O43251-10, residues 100-194)
Technique: RNA Bind-n-Seq
Form: RNA
Matrix: in vitro
Concentration: 365 nM
Notes: natural RNA segment, single round, ends assumed
Relative to: no-protein control
Reading: higher = stronger binding
Residues (chain): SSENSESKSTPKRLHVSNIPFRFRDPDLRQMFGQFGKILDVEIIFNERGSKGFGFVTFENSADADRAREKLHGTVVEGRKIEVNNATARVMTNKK
Sequence	RBNS enrichment (R)
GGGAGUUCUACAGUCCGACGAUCUCUUAGACGAUAGAUACCCAUAUUUCUCCACAAAGUCAAUGCUAUCUUUUUAACAGCACUGUAGCAUUUUUCUUCGUUUAGAACCUUUACUGACUCCAUUGAGUCCCUGAUGGAAUUCUCGGGUGCCAA	0.295
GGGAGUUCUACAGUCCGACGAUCUUGGUUUCUGGCGCUUUCAGAGACGUCUGAGGUUCUUUGCACAGAGACUCCUCAGAUGUGGGAACUCUGGUUCUUUCCGUGCUGUGUUCUGGAGAGAUCUCACGUGGAUGUGGAAUUCUCGGGUGCCAA	0.522
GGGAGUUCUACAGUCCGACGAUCUCCUGCAACGAAGGAGGUGGUGCCGACGUGCUGCUUCCCAUCACCAGCAGCUGCUCGACAAGGGGCGCAGGGUGGCUGUCUUUGUUCCAGCACUGUUCAGGCUGCCUGUCUGGAAUUCUCGGGUGCCAA	0.466
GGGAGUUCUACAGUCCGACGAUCCAAAGCAGCGGGGAGUCGGGCUGUGGCAUGUCGUUCACAGAUAAAUGGCACACCUAGAUUCUUCUGGAAACAUUCUGGAACCUAUCUGAUGACCAGUAUUUCCAGAGUAAUGGAAUUCUCGGGUGCCAA	0.454
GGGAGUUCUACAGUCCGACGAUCUUCAUUCCACUUGUGUAAGUUAAGUCUUGACUCUUUCAAAUGCAAAAAACCUAUUUUAUGCUUUGUUAAAAUUAUGGUGUCACUUAGAUUGACUUUAGUUGACUGCACUAUGGAAUUCUCGGGUGCCAA	0.577
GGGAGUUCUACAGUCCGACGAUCGAGCACAUCCAGGAUUAGAUAAGGUACUUAAGUACCUGCCGGCCCACUGUGCACUGCUUGUGAGAAAAUGGAUUAAAAACUAUUCUUACAUUUGUUUUGCCUUUCCUCCUUGGAAUUCUCGGGUGCCAA	0.256
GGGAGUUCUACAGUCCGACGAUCGCUGUGUUCAGCACAUUUUAGGUAACAGGACACAACUUGAAACUUUUCAGGAGAGCCUAUUGCCCUACGUGAGCAUUAGGUAAAACUCUUAAAUUUCUGUUUACAUUGAAUGGAAUUCUCGGGUGCCAA	0.24
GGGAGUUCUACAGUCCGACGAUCAGGUGGCCCCCACAGCUUCCCACACCCAUUACCCAGCCUGACAGGUGGGCAUGGUGGGCAUCCCAUGCAGCACAACCCAAAUGGACCACCACCACCUUGGAUGCAGCCACUGGAAUUCUCGGGUGCCAA	0.604
